# Published values of several laboratories.
# Compare with care: the assays were run in different laboratories. Values joined by “and” are separate records of one study, mostly repeats; a detail may differ. ± gives the spread as reported.
Compound,assay,test system,setting,scale,endpoint,value
CNC(=O)c1cc(OC)cc2c(N3CCc4c(cc(Cn5ccnc5)cc4-c4cn(C)nc4C(F)(F)F)C3=O)ccnc12,,"CD-1 mouse, male, plasma","intravenous, 3 mg/kg",,AUC extrapolated,0.1%
CCCCCOC(=O)Nc1nc(=O)n([C@@H]2O[C@H](C)[C@@H](O)[C@H]2O)cc1F,,"FVB mouse, abcb1 knock-out, plasma","oral, 300 mg/kg, 0 to 120 min",,AUC,37600 ng·h/mL
COc1cc2c3c(n(CCCNCCO)c(=O)c2cc1OC)-c1nc2c(cc1C3=O)OCO2,,"male CD1 mouse, plasma","oral, 10 mg/kg",,AUC extrapolated,37.3%
CN(C)C(=O)c1cc2cnc(Nc3ccc(-c4ccc5c(=O)cc(N6CCOCC6)oc5c4)cc3)nc2n1C1CCCC1.Cl,,"BALB/c mouse, plasma","oral, 20 mg/kg",,AUC extrapolated,4.4 ± 2.2%
CO[C@H]1/C=C/O[C@@]2(C)Oc3c(C)c(O)c4c(c3C2=O)C2=NC3(CCN(CC(C)C)CC3)NC2=C(NC(=O)/C(C)=C\C=C\[C@H](C)[C@H](O)[C@@H](C)[C@@H](O)[C@@H](C)[C@H](OC(C)=O)[C@@H]1C)C4=O,,"CD-1 mouse, plasma","oral, dose not given, efficacy dose",,AUC,21500 ng·h/mL
Cc1ccc2cncc(N3CCc4c(cc(Cn5ccnc5)cc4-c4cn(C)nc4C(F)(F)F)C3=O)c2c1,,"CD-1 mouse, male, plasma","intravenous, 3 mg/kg",,AUC extrapolated,0.8%
CC(C)Oc1c(NC(=O)c2ccc(NC(=O)[C@H](CC(N)=O)NC(=O)c3ccc(NC(=O)c4ccc(C#N)cc4)cc3)cc2)ccc(C(=O)Nc2ccc(C(=O)O)cc2)c1O,,"CD-1 mouse male, plasma","intravenous, 5 mg/kg",,AUC,2090 ± 573 ng·h/mL
COc1ccc2c3c([nH]c2c1)[C@H](CC(C)C)N1C(=O)[C@H](CCC(=O)NC(C)C)NC(=O)[C@@H]1C3,UPLC-QTOFMS,"wild-type mouse, serum","oral, 50 mg/kg",,AUC,increased
COc1cc(OC)c2nccc(N3CCc4c(cc(Cn5ccnc5)cc4-c4cn(C)nc4C(F)(F)F)C3=O)c2c1,,"CD-1 mouse, male, plasma","intravenous, 3 mg/kg",,AUC extrapolated,0.3%
COc1cc2c3c(n(CCCNC(C)C)c(=O)c2cc1OC)-c1nc2c(cc1C3=O)OCO2,,"male CD1 mouse, plasma","intravenous, 1 mg/kg",,AUC extrapolated,14.8%
CCc1cc(OC)c2nccc(N3CCc4c(cc(Cn5ccnc5)cc4-c4cn(C)nc4C(F)(F)F)C3=O)c2c1,,"CD-1 mouse, male, plasma","oral, 50 mg/kg",,AUC extrapolated,1.7%
CCNCCCn1c2c(c3cc(OC)c(OC)cc3c1=O)C(=O)c1cc3c(nc1-2)OCO3,,"male CD1 mouse, plasma","oral, 10 mg/kg",,AUC extrapolated,8.81%
CC/C(=C(/c1ccc(OCCNC)cc1)c1ccc(B2OC(C)(C)C(C)(C)O2)cc1)c1ccccc1,,C57BL/6 mouse,"oral, 1 mg/kg",relative to: endoxifen,AUC of endoxifen,80 fold
COc1ccc2c3c([nH]c2c1)[C@H](CC(C)C)N1C(=O)[C@H](CC(=O)NC(C)C)NC(=O)[C@@H]1C3,,"wild-type mouse, male, serum","oral, 100 mg/kg",,AUC,142 µM·h and 159 µM·h and 127 µM·h
